Published values pooled from the literature.
Each line is one published result; not all experiments were run side by side. “And” joins repeats or separate records; there may be more than shown. ± gives the spread as reported.
Cytochrome P450 2A13: Cytochrome P450 2A13 (Homo sapiens, UniProt Q16696)
Chain of UniProt Q16696 (whole entry, looked up): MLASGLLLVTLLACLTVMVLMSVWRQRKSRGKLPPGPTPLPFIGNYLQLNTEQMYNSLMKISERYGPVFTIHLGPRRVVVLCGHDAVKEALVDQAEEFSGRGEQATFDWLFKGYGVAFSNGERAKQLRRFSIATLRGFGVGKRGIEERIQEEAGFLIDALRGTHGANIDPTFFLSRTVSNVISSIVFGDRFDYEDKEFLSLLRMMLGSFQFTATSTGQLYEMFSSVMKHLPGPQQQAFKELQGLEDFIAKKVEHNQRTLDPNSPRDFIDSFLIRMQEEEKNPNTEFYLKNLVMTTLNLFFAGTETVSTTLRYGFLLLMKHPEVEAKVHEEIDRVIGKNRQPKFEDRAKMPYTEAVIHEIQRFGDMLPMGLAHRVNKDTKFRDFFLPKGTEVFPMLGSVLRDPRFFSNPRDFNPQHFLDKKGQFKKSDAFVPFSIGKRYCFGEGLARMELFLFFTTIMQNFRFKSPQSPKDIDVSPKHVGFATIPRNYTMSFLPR
gag-pol reverse transcriptase: Gag-Pol polyprotein, reverse transcriptase (gag-pol, Human immunodeficiency virus 1, UniProt P03366)
SCRIB PDZ3 domain: Protein scribble homolog, PDZ3 domain (SCRIB, Homo sapiens, UniProt Q14160)
Chain of UniProt Q14160 (whole entry, looked up): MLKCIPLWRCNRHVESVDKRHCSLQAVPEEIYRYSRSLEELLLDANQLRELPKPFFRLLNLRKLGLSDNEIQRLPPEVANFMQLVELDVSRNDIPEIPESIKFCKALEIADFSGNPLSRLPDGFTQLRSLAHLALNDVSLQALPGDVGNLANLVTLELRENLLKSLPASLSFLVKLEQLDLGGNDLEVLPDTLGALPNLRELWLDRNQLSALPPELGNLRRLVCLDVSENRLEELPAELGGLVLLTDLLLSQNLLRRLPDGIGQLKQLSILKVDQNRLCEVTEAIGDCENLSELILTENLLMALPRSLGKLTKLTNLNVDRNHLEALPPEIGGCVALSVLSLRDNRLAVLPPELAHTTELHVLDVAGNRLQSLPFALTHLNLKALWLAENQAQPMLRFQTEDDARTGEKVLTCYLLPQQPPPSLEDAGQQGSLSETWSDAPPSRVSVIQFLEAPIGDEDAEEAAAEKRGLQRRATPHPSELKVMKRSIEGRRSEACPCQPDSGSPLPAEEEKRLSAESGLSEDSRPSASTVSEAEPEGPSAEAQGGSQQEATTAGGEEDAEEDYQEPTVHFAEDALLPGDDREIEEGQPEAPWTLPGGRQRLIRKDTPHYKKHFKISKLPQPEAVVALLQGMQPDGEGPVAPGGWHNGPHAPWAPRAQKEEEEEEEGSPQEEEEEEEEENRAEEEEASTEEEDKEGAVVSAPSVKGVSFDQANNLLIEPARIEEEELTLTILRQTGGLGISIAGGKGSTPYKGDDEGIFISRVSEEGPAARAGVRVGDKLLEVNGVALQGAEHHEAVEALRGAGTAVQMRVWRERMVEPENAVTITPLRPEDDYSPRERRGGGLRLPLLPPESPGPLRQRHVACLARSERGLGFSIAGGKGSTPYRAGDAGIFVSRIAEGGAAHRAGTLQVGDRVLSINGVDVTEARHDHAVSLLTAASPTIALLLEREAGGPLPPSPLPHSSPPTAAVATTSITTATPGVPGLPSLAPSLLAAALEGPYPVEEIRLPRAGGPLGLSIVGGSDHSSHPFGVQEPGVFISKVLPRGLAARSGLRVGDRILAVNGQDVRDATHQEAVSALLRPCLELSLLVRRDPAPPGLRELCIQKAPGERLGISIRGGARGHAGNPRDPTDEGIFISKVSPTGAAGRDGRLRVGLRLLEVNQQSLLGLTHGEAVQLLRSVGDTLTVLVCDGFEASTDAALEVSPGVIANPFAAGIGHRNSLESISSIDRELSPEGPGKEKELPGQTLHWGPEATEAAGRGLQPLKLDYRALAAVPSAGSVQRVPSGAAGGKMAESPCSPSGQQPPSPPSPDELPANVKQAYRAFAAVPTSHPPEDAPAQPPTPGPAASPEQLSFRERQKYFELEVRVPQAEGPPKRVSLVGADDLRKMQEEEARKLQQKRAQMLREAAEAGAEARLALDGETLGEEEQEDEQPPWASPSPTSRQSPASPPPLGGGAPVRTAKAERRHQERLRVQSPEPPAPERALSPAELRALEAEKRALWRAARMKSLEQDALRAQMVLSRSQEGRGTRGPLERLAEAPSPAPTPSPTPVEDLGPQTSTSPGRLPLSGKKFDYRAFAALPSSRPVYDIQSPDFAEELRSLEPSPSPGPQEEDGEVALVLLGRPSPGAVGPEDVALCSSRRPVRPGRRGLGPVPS
Uncharacterized protein: Uncharacterized protein (Equus caballus, UniProt Q38RB9)
ACTA1 pyrene-labeled: Actin, alpha skeletal muscle, pyrene-labeled (ACTA1, Oryctolagus cuniculus, UniProt P68135)
Chain of UniProt Q15391 (whole entry, looked up): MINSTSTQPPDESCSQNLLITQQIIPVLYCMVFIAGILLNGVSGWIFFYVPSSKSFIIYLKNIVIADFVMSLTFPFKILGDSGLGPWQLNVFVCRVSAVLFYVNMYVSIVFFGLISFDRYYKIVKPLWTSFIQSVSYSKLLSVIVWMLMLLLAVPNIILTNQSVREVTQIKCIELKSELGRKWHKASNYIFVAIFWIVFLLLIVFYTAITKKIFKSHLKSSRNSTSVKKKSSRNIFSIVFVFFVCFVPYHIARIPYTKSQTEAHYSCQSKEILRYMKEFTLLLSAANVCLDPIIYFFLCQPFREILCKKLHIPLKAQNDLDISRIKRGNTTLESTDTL
Chain of UniProt O75874 (whole entry, unmodified, looked up): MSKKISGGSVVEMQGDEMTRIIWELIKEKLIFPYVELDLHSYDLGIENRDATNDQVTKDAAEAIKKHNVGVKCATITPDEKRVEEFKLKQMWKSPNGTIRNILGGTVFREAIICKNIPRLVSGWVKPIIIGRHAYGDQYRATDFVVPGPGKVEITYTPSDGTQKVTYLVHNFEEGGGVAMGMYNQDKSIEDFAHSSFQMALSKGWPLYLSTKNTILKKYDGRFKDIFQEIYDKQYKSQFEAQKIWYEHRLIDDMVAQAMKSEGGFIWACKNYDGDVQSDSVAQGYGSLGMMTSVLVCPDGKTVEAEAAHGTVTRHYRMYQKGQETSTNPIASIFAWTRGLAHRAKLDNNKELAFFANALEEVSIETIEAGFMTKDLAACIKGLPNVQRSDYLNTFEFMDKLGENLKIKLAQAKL
Chain of UniProt Q9UKF6 (whole entry, looked up): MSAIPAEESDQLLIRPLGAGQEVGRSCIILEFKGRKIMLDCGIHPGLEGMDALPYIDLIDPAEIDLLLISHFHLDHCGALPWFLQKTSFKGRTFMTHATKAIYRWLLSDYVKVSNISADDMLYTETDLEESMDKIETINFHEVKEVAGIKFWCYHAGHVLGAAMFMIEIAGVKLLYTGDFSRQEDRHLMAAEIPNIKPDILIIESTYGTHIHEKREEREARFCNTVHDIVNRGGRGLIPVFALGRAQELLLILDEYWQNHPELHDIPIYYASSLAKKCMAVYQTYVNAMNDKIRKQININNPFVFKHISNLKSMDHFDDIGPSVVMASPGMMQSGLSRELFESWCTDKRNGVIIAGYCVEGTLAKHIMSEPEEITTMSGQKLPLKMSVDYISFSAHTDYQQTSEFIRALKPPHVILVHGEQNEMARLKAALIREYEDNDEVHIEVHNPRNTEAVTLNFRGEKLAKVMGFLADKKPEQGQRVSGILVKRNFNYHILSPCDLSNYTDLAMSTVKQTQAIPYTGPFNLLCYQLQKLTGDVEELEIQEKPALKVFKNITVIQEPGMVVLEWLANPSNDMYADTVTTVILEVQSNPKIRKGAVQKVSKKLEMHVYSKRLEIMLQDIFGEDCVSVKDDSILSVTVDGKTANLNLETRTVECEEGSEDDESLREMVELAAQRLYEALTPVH
Chain of UniProt Q05940 (whole entry, looked up): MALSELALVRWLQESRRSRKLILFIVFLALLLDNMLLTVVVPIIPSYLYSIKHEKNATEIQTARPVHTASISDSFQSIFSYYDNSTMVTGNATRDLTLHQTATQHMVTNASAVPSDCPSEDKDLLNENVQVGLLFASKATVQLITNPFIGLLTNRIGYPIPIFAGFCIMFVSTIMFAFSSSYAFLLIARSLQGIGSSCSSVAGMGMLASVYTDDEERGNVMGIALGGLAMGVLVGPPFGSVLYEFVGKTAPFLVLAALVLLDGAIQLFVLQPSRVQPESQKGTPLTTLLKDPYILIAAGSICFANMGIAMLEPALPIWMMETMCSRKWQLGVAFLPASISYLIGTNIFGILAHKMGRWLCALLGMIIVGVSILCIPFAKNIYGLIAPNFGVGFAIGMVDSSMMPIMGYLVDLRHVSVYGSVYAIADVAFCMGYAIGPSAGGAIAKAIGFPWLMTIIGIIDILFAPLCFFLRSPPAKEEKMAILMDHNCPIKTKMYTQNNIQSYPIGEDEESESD
Chain of UniProt Q9NXA8 (whole entry, looked up): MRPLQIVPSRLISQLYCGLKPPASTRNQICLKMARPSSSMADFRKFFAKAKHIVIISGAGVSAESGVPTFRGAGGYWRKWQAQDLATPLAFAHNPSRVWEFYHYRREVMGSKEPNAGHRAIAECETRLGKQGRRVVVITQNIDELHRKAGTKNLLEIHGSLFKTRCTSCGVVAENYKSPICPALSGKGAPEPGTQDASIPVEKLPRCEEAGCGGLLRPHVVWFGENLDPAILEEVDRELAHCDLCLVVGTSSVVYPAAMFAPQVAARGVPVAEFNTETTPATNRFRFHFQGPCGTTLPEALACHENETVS
Chain of UniProt Q14994 (whole entry, looked up): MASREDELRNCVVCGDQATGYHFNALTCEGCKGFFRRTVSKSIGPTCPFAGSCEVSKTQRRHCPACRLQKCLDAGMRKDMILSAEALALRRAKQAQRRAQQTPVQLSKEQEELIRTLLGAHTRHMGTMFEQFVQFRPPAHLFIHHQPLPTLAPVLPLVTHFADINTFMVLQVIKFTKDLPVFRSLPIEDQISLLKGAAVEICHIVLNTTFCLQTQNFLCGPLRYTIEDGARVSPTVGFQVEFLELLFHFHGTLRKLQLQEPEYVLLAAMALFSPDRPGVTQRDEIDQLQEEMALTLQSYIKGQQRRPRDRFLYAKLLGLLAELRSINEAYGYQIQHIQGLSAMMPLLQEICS
Chain of UniProt O33336 (whole entry, looked up): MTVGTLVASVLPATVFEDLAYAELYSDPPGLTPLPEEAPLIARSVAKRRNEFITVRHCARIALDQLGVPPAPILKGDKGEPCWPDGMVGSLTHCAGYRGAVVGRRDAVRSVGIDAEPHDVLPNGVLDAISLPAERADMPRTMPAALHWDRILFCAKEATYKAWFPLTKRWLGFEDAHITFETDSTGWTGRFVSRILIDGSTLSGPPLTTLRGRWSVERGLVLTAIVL

CC[C@H](C)[C@H](NC(=O)[C@H](CCSC)NC(=O)[C@@H](NC(=O)[C@H](Cc1c[nH]c2ccccc12)NC(=O)[C@H](Cc1c[nH]c2ccccc12)NC(=O)CNC(C)=O)C(C)C)C(=O)N[C@@H](Cc1ccccc1)C(N)=O  IC50 (Programmed cell death 1 ligand 1, with PD-1 (CD274, Homo sapiens, UniProt Q9NZQ7); PD-1/PD-L1 binding, inhibitor, ELISA): 570 nM
C#Cc1cc2ccc3cccc4ccc(c1)c2c34  IC50 (Cytochrome P450 2A13; enzyme activity, inhibitor; 20 min, pH 7.4): > 80000 nM
O=C1CSC(c2ccc(Cl)cc2)N1c1nc(-c2ccc(S(=O)(=O)N3CCCC3)cc2)cs1 (stereo not drawn)  IC50 (gag-pol reverse transcriptase): 120 nM
c1ccc2cc3ccccc3cc2c1  IC50 (Cytochrome P450 2A13; enzyme activity, inhibitor; 20 min, pH 7.4): > 200000 nM
CC(C)C[C@H](NC(=O)[C@@H]1CCCN1C(=O)[C@@H](NC(=O)[C@H](CCC(=O)O)NC(=O)[C@H](CCCCN)NC(=O)[C@H](CCCCN)NC(=O)[C@H](Cc1ccc(O)cc1)NC(=O)[C@H](CC(N)=O)NC(=O)[C@H](Cc1ccccc1)NC(=O)[C@@H](N)CO)[C@@H](C)O)C(=O)O  Kd (SCRIB PDZ3 domain; binding, fluorescence polarization; solution; Scribble PDZ3 domain): 1.5 µM
CO/N=C1\C[C@]2(C[C@@H]3C[C@@H](C/C=C(\C)C[C@@H](C)/C=C/C=C4\CO[C@@H]5[C@H](O)C(C)=C[C@@H](C(=O)O3)[C@]45O)O2)O[C@H](/C(C)=C/C(C)C)[C@H]1C  IC50 (Nuclear receptor subfamily 1 group I member 3 (Homo sapiens, UniProt Q14994); receptor activity, inhibitor): 8790 ± 1350 nM
O=[N+]([O-])c1cc(NCCCCCCN2C[C@H](O)[C@@H](O)[C@H](O)[C@H]2CO)cc(-c2ccncc2)c1  IC50 (Ganab (Mus musculus, UniProt Q8BHN3); enzyme activity, inhibitor; added: 4-methylumbelliferyl substrate): < 1 nM
C#CCNC(=O)c1ccc(S(=O)(=O)N[C@@H](CCCCNC(=O)c2cccc(OS(=O)(=O)F)c2)C(=O)N[C@@H](Cc2c[nH]c3ccccc23)C(=O)NC2CCC2)cc1  IC50 (SIRT5 (Homo sapiens, UniProt Q9NXA8); inhibitor, fluorogenic; 4 h preincubation, His-tagged enzyme 150 nM, added: NAD+ 500 µM): 19600 ± 7900 nM
CC[C@H](C)[C@H](NC(=O)[C@H](CCCCN)NC(=O)[C@@H](NC(=O)[C@H](Cc1c[nH]cn1)NC(=O)[C@H](CO)NC(=O)[C@@H]1CCCN1C(=O)[C@H](CC(C)C)NC(=O)[C@H](CC(=O)O)NC(=O)[C@@H](N)CCCNC(=N)N)[C@@H](C)O)C(=O)O  IC50 (Uncharacterized protein; peptide binding, competitor, competitive radioligand binding; purified horse MHC class I; pH 7): 4.5 nM
O=P(O)(O)Oc1ccccc1OP(=O)(O)O  IC50 (Signal transducer and activator of transcription 4 (Homo sapiens, UniProt Q14765); inhibitor): 68000 ± 6000 nM
CC[C@H](C)[C@H](NC(=O)[C@H](CC(C)C)NC(=O)[C@H](CO)NC(=O)[C@H](CC(C)C)NC(=O)[C@H](CO)NC(=O)[C@@H]1CCCN1C(=O)[C@H](CC(=O)O)NC(=O)[C@H](CC(=O)O)NC(=O)[C@H](C)N)C(=O)O  IC50 (Uncharacterized protein; peptide binding, competitor, competitive radioligand binding; purified horse MHC class I; pH 7): 1070 nM
COc1ccc(N2C(=O)N(c3c(C)cccc3Cl)Cc3cnc(Nc4ccc(C5CCN(C)CC5)cc4OC)nc32)nc1  inhibition (RET (Homo sapiens, UniProt P07949); kinase activity; 0.5 µM): 92%
CN(C)c1nc(N)c(C(=O)NC(=N)N)nc1Cl  IC50 (Genome polyprotein, 3D RNA polymerase (Coxsackievirus B3, UniProt P03313); RNA polymerase activity, inhibitor, single AMP incorporation; no Mg2+ preincubation): 82000 ± 29000 nM
O=C1CSC(c2ccc(Cl)cc2)N1c1nc(-c2ccc(S(=O)(=O)N3CCOCC3)cc2)cs1 (stereo not drawn)  IC50 (gag-pol reverse transcriptase): 650 nM
C[C@H]1CN(c2n[nH]c3nc(N[C@H]4CC[C@H](NS(=O)(=O)CCC(F)(F)F)CC4)ncc23)CCO1  IC50 (CHUK (Homo sapiens, UniProt O15111); biochemical): ≥ 20000 nM
O=C(c1ccc(Cl)cc1)N1CCN2C(=O)N(OC(=O)N3CCOc4ccccc43)C(=O)C2C1 (stereo not drawn)  median protein ratio (Acyl-coenzyme A thioesterase 2, mitochondrial (ACOT2, Homo sapiens, UniProt P49753); MS-based ABPP; SW-620 conditioned medium; 10 µM, 1 h, 37 °C; reference: compound over DMSO, lower = more inhibition): 1.02
CC#Cc1ccc2ccc3ccccc3c2c1  IC50 (Cytochrome P450 2A13; enzyme activity, inhibitor; 20 min, pH 7.4): > 100000 nM
O=C1CSC(c2c(F)cccc2Cl)N1c1nc(-c2ccc(S(=O)(=O)N3CCOCC3)cc2)cs1 (stereo not drawn)  IC50 (gag-pol reverse transcriptase): 3150 nM
COc1cc2c(Oc3ccc4[nH]c(C)cc4c3F)ccnc2cc1OCC1(N)CC1  grade 1 or 2 gingival bleeding (paediatric recurrent refractory sarcoma; 12 mg): 0%
CC(C)C[C@H](NC(=O)[C@H](CCC(=O)O)NC(=O)[C@H](CCC(=O)O)NC(=O)[C@H](CCC(N)=O)NC(=O)[C@H](CCC(=O)O)NC(=O)[C@@H](N)CC(C)C)C(=O)N[C@@H](CC(=O)O)C(=O)N[C@@H](CCCCN)C(=O)N[C@@H](CC(N)=O)C(=O)O  IC50 (Uncharacterized protein; peptide binding, competitor, competitive radioligand binding; purified horse MHC class I; pH 7): 90 nM
CC[C@H](C)[C@@H]1NC(=O)[C@@H]2CCCN2C(=O)[C@H](CC(C)C)NC(=O)[C@H](CC(C)C)NC(=O)CNC(=O)[C@@H](NC(=O)[C@@H](NC(=O)[C@H](CC(=O)O)NC(=O)CNC(=O)[C@@H](NC(=O)[C@H](C)NC(=O)CNC(=O)[C@H](CCCCN)NC(=O)[C@H](CC(C)C)NC(=O)[C@H](CC(C)C)NC(=O)[C@H](CCCCN)NC(=O)CNC(=O)[C@@H](NC(=O)[C@@H](N)CC(C)C)C(C)C)C(C)C)C(C)C)CSSC[C@@H](C(=O)O)NC1=O  log2 fold change (RNA-seq, item: Fcgr4 mRNA; mouse traumatic brain injury, frontal cortex and hippocampus; dose not given; reference: TBI plus compound vs TBI): -2.46
C[C@@H](NC(=O)[C@@H](N)Cc1ccc(O)cc1)C(=O)NCC(=O)N[C@@H](Cc1ccc(Cl)cc1)C(=O)N(C)CCC[C@@]1(c2ccc(F)cc2)OCc2cc(C#N)ccc21  IC50 (Oprm1 (Rattus norvegicus, UniProt P33535)): 14.5 nM
CN1CCN(CCOc2c(Cl)cc(C(=O)N[C@@H](Cc3ccccc3)C(=O)O)c(O)c2Cl)CC1  IC50 (CPSF3 (Homo sapiens, UniProt Q9UKF6); pre-mRNA cleavage, inhibitor; HeLa nuclear extract; added: Chimera_2 substrate): 89600 nM
COc1cc2c(cc1OC)C1CC(=O)C(CC(C)C)CN1CC2 (stereo not drawn)  IC50 (SLC18A2 (Homo sapiens, UniProt Q05940); binding): 112 nM
O=C(CCl)N1CCC(C(O)(c2ccccc2)c2ccccc2)CC1  IC50 (IDH1 (Homo sapiens, UniProt O75874, R132H); probe labelling, covalent inhibitor, gel-based competitive ABPP; MDA-MB-231 lysate; added: IA-rhodamine): 9200 nM
CC[C@H](C)[C@H](NC(=O)[C@H](Cc1ccccc1)NC(=O)[C@H](CCC(=O)O)NC(=O)[C@H](CCCNC(=N)N)NC(=O)[C@H](C)NC(=O)[C@H](C)NC(=O)[C@H](CCC(N)=O)NC(=O)[C@H](CCC(=O)O)NC(=O)[C@H](CCC(=O)O)NC(=O)[C@H](CC(C)C)NC(=O)[C@H](Cc1ccc(O)cc1)NC(=O)[C@H](CO)NC(=O)[C@H](CO)NC(=O)[C@@H](NC(=O)[C@H](CC(=O)O)NC(=O)[C@H](CO)NC(=O)[C@@H](NC(=O)[C@H](Cc1ccccc1)NC(=O)[C@@H](NC(=O)CNC(=O)[C@H](CCC(=O)O)NC(=O)[C@H](C)NC(=O)CCc1c[nH]cn1)[C@@H](C)O)[C@@H](C)O)C(C)C)C(=O)N[C@@H](C)C(=O)N[C@@H](Cc1c[nH]c2ccccc12)C(=O)N[C@@H](CC(C)C)C(=O)N[C@H](C(=O)N[C@@H](CCCNC(=N)N)C(=O)NCC(=O)N[C@@H](CCCNC(=N)N)C(=O)N[C@@H](CCCCNC(=O)COCCOCCNC(=O)COCCOCCNC(=O)CC[C@H](NC(=O)CCCCCCCCCCCCCCCCC(=O)O)C(=O)O)C(=O)NCC(=O)NCC(=O)N[C@@H](CO)C(=O)N[C@@H](CCCCNc1c(NCCCCCN(O)C(=O)CCC(=O)NCCCCCN(O)C(=O)CCC(=O)NCCCCCN(O)C(C)=O)c(=O)c1=O)C(=O)O)C(C)C [zirconium-89 labelled]  tissue uptake (rat, stomach; iv, 3 nmol/kg, 72 h, ex vivo): 0.22 %ID/g
CCOC(=O)[C@H]1Cc2c(cc([N+](=O)[O-])cc2[N+](=O)[O-])[C@@H](O)[C@@]12C(=O)Nc1cc(Br)ccc12  IC50 (MDM2 (Homo sapiens, UniProt Q00987)): 850 ± 110 nM
N#Cc1ccc(Nc2ncc(Cc3c(F)cc(-c4ccc(OS(=O)(=O)F)cc4)cc3F)o2)cc1  IC50 (gag-pol reverse transcriptase; enzyme activity, inhibitor; HIV-1): > 20000 nM
C[C@@H](O)[C@@H](CO)NC(=O)[C@@H](CCCNC(=N)N)NC(=O)[C@@H]1CCCN1C(=O)[C@@H]1CSSC[C@H](NC(=O)[C@H](Cc2ccccc2)NC(=O)CN2CCN(CC(=O)O)CCN(CC(=O)O)CCN(CC(=O)O)CC2)C(=O)N[C@@H](Cc2ccc(O)cc2)C(=O)N[C@@H](Cc2ccccc2)C(=O)N[C@@H](CCC(N)=O)C(=O)N[C@@H](CC(N)=O)C(=O)N1 [gallium-68 labelled]  tissue uptake (healthy Wistar rat, spleen; intravenous, 8 MBq, 60 min, individual animals): 0.24 %ID/g
C[N+]1(C)CCC(OC(=O)C(c2ccccc2)c2ccccc2)CC1  IC50 (CHRM1 (Homo sapiens, UniProt P11229); inhibitor; human, concurrent measurement): 4.67 nM
COc1cc(Nc2ncc(F)c(Nc3ccc4c(n3)NC(=O)C(C)(C)O4)n2)cc(OC)c1OC  IC50 (CXCR1/CXCR2 (non-selective)): > 10000 nM
c1ccc2c(c1)ccc1c3ccccc3ccc21  IC50 (Cytochrome P450 2A13; enzyme activity, inhibitor; 20 min, pH 7.4): > 200000 nM
O=C1c2ccccc2C(=O)c2oc(-c3cccnc3)nc21  IC50 (USP2 (Homo sapiens, UniProt O75604); enzyme activity, MALDI-TOF; 35 min preincubation, 30 °C): 210 nM
C/C1=C/C(=O)O[C@@H]2C[C@@H](CC[C@H](C)/C=C\C=C\CC1)O[C@@](OCCc1ccccc1)([C@@H]1CSC(=O)N1)C2  IC50 (ACTA1 pyrene-labeled; actin polymerization, pyrene actin): 184 ± 48 nM
CCCCCCCCCCCCCCCC(=O)OCC(CSC[C@H](N)C(=O)N[C@@H](CO)C(=O)N[C@@H](CCCCN)C(=O)N[C@@H](CCCCN)C(=O)N[C@@H](CCCCN)C(=O)N[C@@H](CCCCN)C(=O)Nc1ccc(Cn2c(O)nc3c(N)nc(NCCCC)nc32)cc1)OC(=O)CCCCCCCCCCCCCCC (stereo partly drawn)  viability (HFF-1; 1 µg/mL, 48 h): 92.5%
CC(C)C[C@H](NC(=O)[C@H](CC(N)=O)NC(=O)[C@@H](NC(=O)[C@H](CCC(=O)O)NC(=O)[C@H](CC(=O)O)NC(=O)[C@H](Cc1c[nH]c2ccccc12)NC(=O)[C@H](C)NC(=O)[C@@H]1CCCN1C(=O)[C@H](CC(=O)O)NC(=O)[C@@H](N)CC(N)=O)[C@@H](C)O)C(=O)O  Kd (SCRIB PDZ3 domain; binding, fluorescence polarization; solution; Scribble PDZ3 domain): 4.9 µM
CO[C@]1([C@@H]2CSC(=O)N2C(=O)c2ccccc2)C[C@H]2C[C@@H](CC[C@H](C)/C=C\C=C\CC/C(C)=C\C(=O)O2)O1  IC50 (ACTA1 pyrene-labeled; actin polymerization, pyrene actin): 834 ± 109 nM
CC(=O)N1C[C@@H]2C[C@H]1C[C@H]2c1ccc(-c2cc(C(=O)O)cc3cc(-c4ccc(C(F)(F)F)cc4)ccc23)cc1 (racemic)  IC50 (P2Y purinoceptor 14 (P2RY14, Homo sapiens, UniProt Q15391); antagonist, flow cytometry; CHO expressing target; added: fluorescent antagonist 20 nM): 29 nM and 29.4 nM
CCNC(=N)NC(=O)Nc1cccs1  IC50 (4'-phosphopantetheinyl transferase PptT (Mycobacterium tuberculosis, UniProt O33336); inhibitor): > 100000 nM
